Assay results of several laboratories.
Each numbered part is a random draw from the data of one study; scales do not carry over between parts.

Block 1
Target: RING finger protein unkempt homolog, zinc fingers 1-6, GST-SBP tag (UNK, Homo sapiens, UniProt Q9C0B0, residues 30-357)
Method: RNA Bind-n-Seq
Form: RNA
Sample: in vitro
Tested at: not given
Setting: RNA with constant flanks, ends assumed
Reference: input RNA pool
Direction: higher = stronger binding
All sequences stand within: GGGAGUUCUACAGUCCGACGAUC … CAACAGAGGAUUGAGCAUCA
Target sequence (chain): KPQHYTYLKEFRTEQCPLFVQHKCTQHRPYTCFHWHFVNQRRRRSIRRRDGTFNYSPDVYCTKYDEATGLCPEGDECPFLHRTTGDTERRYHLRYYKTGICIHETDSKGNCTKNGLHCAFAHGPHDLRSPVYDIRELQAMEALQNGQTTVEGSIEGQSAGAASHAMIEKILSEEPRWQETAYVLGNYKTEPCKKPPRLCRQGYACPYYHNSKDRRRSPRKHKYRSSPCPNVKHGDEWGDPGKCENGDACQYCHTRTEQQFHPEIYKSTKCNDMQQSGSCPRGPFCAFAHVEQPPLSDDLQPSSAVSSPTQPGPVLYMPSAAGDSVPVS
Sequence	bound/input enrichment [ratio]
UCAGUCUAGCUUUUAAUUAAGUUAUUUUGUAUAGCUUAAUUUGUAAAACAUUUUAUGUUUUUCCGAUGCUUUAUUAAAUACAUGGCCAAACCAAAUAACAUCUUUCAGUAAUUAUAGAAU	8.78
GUCACCCAGCUGUUGCAGUCUUCGCAUAAGGAAUCCAGCUUCGAUGUCAUUCUGUCGGGUGCCGUCCCAGGAAGCACCUCUCUGCACAGUGCUGAGGUUCUGGCUGAGAUGGCCCGGAUC	0.119
GGUAUCGCUGUUGAUCACCUUGGCCGCAACAUCUUCUGGACAGACUCUAACCUGGAUCGAACCGAAGUGGCGAAGCUGGACGGCACGCAGCGCCGGGUGCUCUUUGAGACUGACUUGGUG	0.136
GGCUCCCCUUCCAAUGAGCUGGUGUCUGGAGGAUCUGACAAUCGGGUGAUUCAUUGGGAACCCGAGAAUAAUCAGGUUUUAAAAUCAGUCCGUCUCCAAGGCCAUGAAGGACCUGUUUGU	0.197
GCACUUGGCAAUGUAAUAAGUGCCUUGGGAGACAAGAGCAAGAGGGCCACACAUGUCCCCUACCGAGAUUCCAAGCUAACAAGACUACUACAGGAUUCCCUCGGGGGUAAUAGCCAAACA	0.174
CAUUUGUAUUGUACAUAAAAUUUUCUAGAAAUACACUUUUUUCCAAAGUGUAAGUUUGUGAACCGAUUUUAGCAUGAUGAAACUGUCAUAAUGGUGAAUGUUCAAUCUGUGUAAGAAAAC	0.792
UUGAAGGUACUGGGAACAGCUUUUGAUCCUUUCUUAGGAGGAAAAAACUUCGAUGAAAAGUCCGUGGAACAUUUUUGUGCAGAAUUUAAAACUAAGUACAAGUUGGAUGCAAAAUCCAAA	0.0699
GUGAAACUGGUUCUUCCAAAGACCAAGUUUUCUAUGGUGUUACCUGAAGUCGAAGCAGCGUCCGCCGAGAUUCCUGGCGUCCGGAGUGUCGUGUUGUUUGGAGUAGAAACGCACGUGUGU	0.171
GAUGAAAAGAUGAGCCCAACAAUUGGAAAACAAUUACUUAAGGGCUCCGCUGAUCCUCUAAACCGUGCUUUCCAUUUGACCUACAACAUGGUUUUGAACUUACUACGUGUAGAAGAAAUU	0.153
ACCUAGCCAGUCCAACCUCCACCAUGGGGGCCGUGACCUGGCUACUGCCAGGCAUCUUUCCCGCUUUGUUUGCCCUCACUCCCGAAGGUGGGGUCCUCAAGAAAAUCAUCAGGCACAAGC	0.126
GAAGAAUUAGAUGCCUUGUUAAACAAUUUCUGUGAACUCUCAGCUCCAGGAGGUGUGGAAAACCGUUAUGGGAAAAUAAAUAUCCUACUUCAAACCUACAUCAGCCGAGGAGAGAUGGAC	0.871

Block 2
Target: Interferon regulatory factor 7, full length, phosphomimetic (IRF7, Homo sapiens, UniProt Q92985, residues 1-503, S471D/S472D/S475D/S476D/S477D/S483D/S484D/S487D)
Method: protein-binding microarray
Form: double-stranded DNA, one strand shown
Sample: in vitro
Tested at: 2200 nM top
Setting: 60-bp whole probe
With: salmon DNA 0.4 mg/ml
Reference: random background probes
Direction: higher = stronger binding
All sequences stand within: GCCTAGCAC … GTCTTGATTCGCTTGACGCTGCTG
Construct (chain): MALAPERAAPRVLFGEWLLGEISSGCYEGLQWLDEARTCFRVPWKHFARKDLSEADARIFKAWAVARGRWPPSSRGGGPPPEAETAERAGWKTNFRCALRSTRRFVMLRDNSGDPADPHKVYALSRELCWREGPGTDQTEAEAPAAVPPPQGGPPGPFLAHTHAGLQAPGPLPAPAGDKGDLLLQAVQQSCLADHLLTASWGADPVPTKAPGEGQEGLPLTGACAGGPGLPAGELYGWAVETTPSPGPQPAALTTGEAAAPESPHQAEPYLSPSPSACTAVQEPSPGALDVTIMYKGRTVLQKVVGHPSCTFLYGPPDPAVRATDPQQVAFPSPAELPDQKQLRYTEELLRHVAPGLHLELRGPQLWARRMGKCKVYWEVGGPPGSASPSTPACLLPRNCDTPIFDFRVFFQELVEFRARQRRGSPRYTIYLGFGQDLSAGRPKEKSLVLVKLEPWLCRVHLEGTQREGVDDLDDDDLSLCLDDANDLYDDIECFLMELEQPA
Sequence	fitted relative affinity
TTAGGTTTCCGGTTTCGGTTAGTGCTA	8.85 z-score
GACGATTTCAGTATCGAGGCGTGCTAG	0.852 z-score
TTAGGACTGGGACTGAGTTAGTGCTAG	-0.691 z-score
TTGGAACTGGGGTTTCGATTAGTGCTA	2.09 z-score
TCATGAGTCCCTATCTCACTGTGCTAG	1.03 z-score
TCAAGTATGTTCCTTATTACTGTGCTA	1.18 z-score
TTAGGATTCGGGTTTCGGTTAGTGCTA	4.96 z-score
GACGGACTAGACACTGGGGACGTGCTA	-0.772 z-score
GTAGGTATCCTTTTCCTTTAGTGCTAG	1.71 z-score
GACGGACTGGGTCTCGGGCCGTGCTAG	-1.01 z-score
CTGCTGCAGGCAGCACGCTGGTGCTAG	-0.591 z-score
GACGACTTCGGGACTGGAGACGTGCTA	-0.336 z-score
TTAGGTTACGACTTTCGGTTAGTGCTA	5.82 z-score
TTAGGTATCGATTTTCGGTTAGTGCTA	5.36 z-score
TCAATTTTCTGAATGCTACTGTGCTAG	2.71 z-score
CCAGCTCTGATGTTGGGAAAGTGCTAG	-0.0121 z-score
GACGATTTCGGGTTTCGAGACGTGCTA	5.47 z-score
TCAATTTTCGTTTTTATACTGTGCTAG	9 z-score
GTAAAATTATTCTGTATATTGTGCTAG	-0.0724 z-score
GACGGTCTCGGTATCGGGAGGTGCTAG	0.0438 z-score
TTCTGAACCATTTTGGTTTTGTGCTAG	0.675 z-score
GACGCTCTCCTTATCCTGACGTGCTAG	1.86 z-score

Block 3
Target: Histone acetyltransferase KAT6A, winged helix 2, GST fusion (KAT6A, Homo sapiens, UniProt Q92794, residues 85-181)
Method: protein binding microarray
Form: double-stranded DNA, one strand shown
Sample: in vitro
Tested at: not given
Setting: 8-mer, flanks averaged, mean of 2 arrays, mostly near background
Reference: not given
Direction: higher = stronger binding
Target sequence (chain): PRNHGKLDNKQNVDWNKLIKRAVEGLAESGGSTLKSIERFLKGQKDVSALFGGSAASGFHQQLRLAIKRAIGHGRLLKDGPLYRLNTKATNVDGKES
Sequence	E-score
CGTTACAA	-0.0123
CCGCCAGG	0.0116
GAACGGAC	-0.045
AATACAGA	0.0389
CAGGGCTC	0.0473
ACGTTTCT	-0.0748
CAGTGGCC	0.0833
CTACCCAC	-0.0342
CCAGTCAA	-0.112
ACTCAGGG	0.117
ACCTAAAA	-0.165
CAAGGGGA	-0.0944
AAACAGGA	0.0038
CCAAAACA	-0.0925
ACGATCTC	-0.0985
CAACACAG	0.0929
AATGTCGG	-0.0758

Block 4
Target: Phosphate system positive regulatory protein PHO4, full length, GST-tagged (PHO4, Saccharomyces cerevisiae, UniProt P07270, residues 1-312)
Method: competition protein-binding microarray
Form: double-stranded DNA, one strand shown
Sample: in vitro
Tested at: 2 µM
Setting: whole 60-bp probe, lowest competitor level
With: Cbf1 competitor, 0.05 µM
Direction: higher = stronger binding
All sequences stand within: … GTCTTGATTCGCTTGACGCTGCTG
Residues (chain): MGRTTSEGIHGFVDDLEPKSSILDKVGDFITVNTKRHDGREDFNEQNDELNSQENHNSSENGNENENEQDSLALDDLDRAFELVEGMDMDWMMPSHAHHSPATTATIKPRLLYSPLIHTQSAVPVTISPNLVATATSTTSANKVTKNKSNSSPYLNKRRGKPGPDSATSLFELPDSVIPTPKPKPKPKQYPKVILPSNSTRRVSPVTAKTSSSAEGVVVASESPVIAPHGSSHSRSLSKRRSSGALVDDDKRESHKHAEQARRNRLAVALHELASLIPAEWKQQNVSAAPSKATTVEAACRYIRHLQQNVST
Sequence	fluorescence intensity [a.u.]
ATCCGATTGGATGGACACATGCGATTCAACGCCGCT	8580
AGTAAAAGCCACCTTTCCGTGGGTAATCCGCTGAAA	4080
GAACTGCCACCTCACCACGTGTGTTCCTCGCAAGCC	15300
CTAACGAAGGTTTGACAGGTGGGTGACAAGCCAAGT	5680
GTTTGACTACGTACGACCGTGCCAGACTTGCCGATG	6460
CTAACGAAGGTTTGCAACGTGGGTGACAAGCCAAGT	12800
CGGGGTTAAGTTTGTGCAGTGGGTGGCTTGCAGCAG	5440
TTTTCTGATTGCCAGCCCGTGCGGATTAGGGATTTC	8590
ACCTTAACGCGAAAACGCGTGAAATTGAAATTTAGC	5530
CCCAGCAAGCGTTCATCCGTGACGGGTTCAGCAAGG	4100
TGCGCAACAACTTGACTAGTGGGTGTATGTCTAGAA	4820
CTACTACAGATATTACATGTGGCGAAAAAGACAAGA	9010
AATAGCGAGGGTCGCCCCGTGGGACATGCTACTGAG	11400
CTTTCCCGATCTTGTCACCGTACTTTAGCACATTTG	3950
GTCCTTTGCCTCTACCTCGTGCTTTCTCTTGCCATG	11100
CATACGCGTTCGCTTCACGTGATGGTCCTTTTCCAT	12500
CATACCCAACCTTGGTAAGTGGGTGAAGATATTTGT	3910
CTAACGAAGGTTTGCCACGTGGGTGACAAGCCAAGT	16900

Block 5
Target: Protein C-ets-1 (ETS1, Homo sapiens, UniProt P14921, residues 1-441, full length assumed)
Method: protein-binding microarray
Form: double-stranded DNA, one strand shown
Sample: in vitro
Tested at: not given
Setting: k-mer, scored over probes, only values ≥0.25
Direction: higher = stronger binding
Residues (chain): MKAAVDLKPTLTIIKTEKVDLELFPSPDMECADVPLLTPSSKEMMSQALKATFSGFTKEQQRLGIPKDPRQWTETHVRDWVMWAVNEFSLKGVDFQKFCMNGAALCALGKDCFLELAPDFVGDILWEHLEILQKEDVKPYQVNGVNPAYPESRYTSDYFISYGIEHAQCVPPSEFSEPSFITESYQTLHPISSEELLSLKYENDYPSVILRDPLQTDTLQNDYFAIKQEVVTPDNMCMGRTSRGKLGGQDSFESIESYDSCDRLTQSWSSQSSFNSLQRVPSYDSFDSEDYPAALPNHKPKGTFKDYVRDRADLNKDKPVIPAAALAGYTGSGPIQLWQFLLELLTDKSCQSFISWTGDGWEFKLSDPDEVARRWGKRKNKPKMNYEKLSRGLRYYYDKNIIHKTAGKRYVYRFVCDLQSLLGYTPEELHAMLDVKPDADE
Sequence	E-score
ACATCCCT	0.278
CGGACTTC	0.301
AGGACGGA	0.281
CTTCATCC	0.266
CCGGAACG	0.424
AGAGGATA	0.268
AATCCGGG	0.283
ATTATCCG	0.295
ATCCTGAC	0.253
GGGAAGGA	0.351
CTGCTTCC	0.445
CAAGGAAA	0.253
GGATGACA	0.25
CGGATGTA	0.483
ATATCCGA	0.318
AACTTCCA	0.323
CCGGACGG	0.431
GACTTCCA	0.391
CGGGTTCC	0.319
CACACCGG	0.366
ATGCATCC	0.356

Repeated from above (block 3):
Sequence	E-score
CGTTACAA	-0.0123
CCGCCAGG	0.0116
CCAGTCAA	-0.112
CAACACAG	0.0929
AAACAGGA	0.0038
CAGGGCTC	0.0473
AATACAGA	0.0389
ACGATCTC	-0.0985
CCAAAACA	-0.0925
ACTCAGGG	0.117
CAAGGGGA	-0.0944
CAGTGGCC	0.0833
ACGTTTCT	-0.0748
